Assay results gathered from unrelated publications.
Each numbered part is a random draw from the data of one study; scales do not carry over between parts. Positions count from the first letter of the parent shown.

Study 1 — technique: RNA Bind-n-Seq; form: RNA; matrix: in vitro; concentration: 365 nM; relative to: no-protein control; reading: higher = stronger binding
Target: RNA binding protein fox-1 homolog 2, RRM domain, GST-SBP tag (RBFOX2, Homo sapiens, UniProt O43251-10, residues 100-194)
Notes: natural RNA segment, single round, ends assumed
Target sequence (chain): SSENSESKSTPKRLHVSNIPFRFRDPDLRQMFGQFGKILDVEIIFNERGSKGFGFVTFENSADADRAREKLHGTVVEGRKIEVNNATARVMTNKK
Sequence | RBNS enrichment (R)
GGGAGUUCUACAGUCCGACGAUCUUUUGUUUUGUUUUCGGUUUAAAAACAACAACAAACUGUGUGCAUGCAGAAUACAGACCUUGAGGUUGGCUACUGUUCAAGACAGCUUCAGUCUCUCUACCACAUUCCAUUGGAAUUCUCGGGUGCCAA | 5.46
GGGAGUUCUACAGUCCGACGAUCGCUGUGAGGCAGCGGGGAGGGACCGUGCACCCGUGGCUAUCAGAGCCCCUCCGCUGUCCCACCCUGGGCCUGGGACACGGGCCUGGGGCAGUGUGUGUCUGCUGGUCAUGUGGAAUUCUCGGGUGCCAA | 0.293
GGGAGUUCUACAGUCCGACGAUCUAGUCAGUGCCCUAAGUAUUCGUAGAGUGAAGAAUGCCAGCCUCUCUUGUCCCUGGUUUCCUUAUGUGUUGAAUGUGGUUGAGUUUGUCCAUUGCUAGGGAGAGACUUCCUGGAAUUCUCGGGUGCCAA | 4.34
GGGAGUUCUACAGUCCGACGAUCAACUGAAAUCUGAAGCUUUUUAUCGCUUAUUUUUCCUCGCCCUGUCUCCUCCCUUCCACCUUUCUCCUUGCAUUGUGAUGAUCUAGUAGGCACGUCUGUCAACAGGACACUGGAAUUCUCGGGUGCCAA | 1.62
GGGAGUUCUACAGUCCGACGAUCUAUUUUUUUUUUAAACUGAAUCCUGUUUUGUAAAUAAUAUACAUUUAAUGUUGCUUAGCAUAAAAAAUACUUUCUUACAGUAAUCUUCUUUAAAUUGGGUAUAUGAAAACUGGAAUUCUCGGGUGCCAA | 0.606
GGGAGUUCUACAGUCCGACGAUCCUUGAGACUUAGGAGGAUUGCCUGUUUUCAGUGUCCAGGGAAUGACUCCAUAGAUUUGAAUUCUUUUCCGUAUGUGGGGAUGGUUGCUACUACCUCACCGCCAAGUCCUCUGGAAUUCUCGGGUGCCAA | 0.858
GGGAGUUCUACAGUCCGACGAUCUCACAUGGGCUCUUUGGGGGUCUGUCUGCUGGGGCAGGAAUAAUCCCAGUUCUCUGACUCUCGCUCUAGAGUUGAGAACAGGCAGGGCCUGGUGUGCUCUGGGAUGUGCAUGGAAUUCUCGGGUGCCAA | 5.9
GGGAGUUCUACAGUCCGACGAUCUAAUAAAGGUGGUAGAUUUCAUUAAGGUUUUAGAUCAAAACUUUGAAUAAAUCAAAAACGUUCAUUCUAUUCUCUGCAACCCUUCUCAUAUUUUAUAGGUUUAGAUGGAAUGGAAUUCUCGGGUGCCAA | 0.468
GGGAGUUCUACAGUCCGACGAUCGCUGAGCUAGGCUACAGGGGAAAACUAUUGUGUUGUAAAGUUGCAUCGCUAUUUUAUAUUAAAAUGUAAUGAUCAGCAUCAUGAACAAUGAGCUCUUAGUGUUUUAUUUAUGGAAUUCUCGGGUGCCAA | 0.453
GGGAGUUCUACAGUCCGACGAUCCCUGCCUUCAUGUGGACCCUUAGAACAGCACUGGGAGACCAGCAGGACUCCUGAGAACUGUGCUGGUGGAGAGGUCCUAGAGCCGGCGAGCGUUUGAGAAGAGGGCAUGGUGGAAUUCUCGGGUGCCAA | 0.459
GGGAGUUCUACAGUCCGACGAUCGCAUGUGAGCACAUGCGUAUAUGUGCGUCUCUCUUUCUCCCUCACCCCCAGGUGUUGCCAUUUCUCUGCUUACCCUUCACCUUUGGUGCAGAGGUUUCUUGAAUAUCUGCUGGAAUUCUCGGGUGCCAA | 0.5
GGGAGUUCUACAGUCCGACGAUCGGAAGGAAAAAUGAGGAGAAAGAGUGUGGUAUCCUCCUUCUAAGACAGUGACCGAUUUCUCUGGGUUGGGCCAAGACUUUAUUUACUGCAUCAUGCAUGACUCACUCAGGUGGAAUUCUCGGGUGCCAA | 18.4

Study 2 — target: CCNE1, cyclin fold, Cln2 fusion (human); technique: yeast growth competition, sequencing; matrix: yeast; notes: strong parent motif; relative to: not given; reading: higher = stronger binding
Starting sequence: PKN2 docking peptide (human); VSAVRKLDFSDTM; partner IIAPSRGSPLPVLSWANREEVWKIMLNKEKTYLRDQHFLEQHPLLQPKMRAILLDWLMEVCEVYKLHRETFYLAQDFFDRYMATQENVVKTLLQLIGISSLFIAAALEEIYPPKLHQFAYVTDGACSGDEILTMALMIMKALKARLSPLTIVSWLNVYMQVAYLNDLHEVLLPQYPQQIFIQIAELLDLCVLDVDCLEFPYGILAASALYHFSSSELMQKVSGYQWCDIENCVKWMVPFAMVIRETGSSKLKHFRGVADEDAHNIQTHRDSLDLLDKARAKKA
Change | normalised enrichment score
K6G | 0.523
D11A | 5.12
S2L | 4.23
L7G | -0.105
K6C | 4.03
S10V | 4.16
R5A | 0.333
A3E | 0.835
L7E | 0.0609
F9P | -0.232

Study 3 — technique: DHFR PCA, dose-response; matrix: yeast; notes: Hill fit, mean, not affinity; with: (+)-ABA, dose series; reading: lower = more sensitive
Target: ABI1, truncated, D143A, DHFR fusion (Arabidopsis thaliana, UniProt P49597)
Starting sequence: PYL1, truncated, DHFR fusion (Arabidopsis thaliana, UniProt Q8VZS8); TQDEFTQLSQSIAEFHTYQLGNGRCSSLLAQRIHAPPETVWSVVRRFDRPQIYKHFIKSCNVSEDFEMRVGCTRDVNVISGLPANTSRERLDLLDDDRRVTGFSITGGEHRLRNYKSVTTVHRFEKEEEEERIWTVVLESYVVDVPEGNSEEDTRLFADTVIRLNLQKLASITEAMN
Change | ABA EC50
R123H | 1.93 µM
A30G | 4.21 µM
R132C | 1.24 µM
V161C | 126 µM
P37S | 17.3 µM
S9C | 6.27 µM
P146V | 140 µM
G107Y | 147 µM
V76I | 0.611 µM

Other studies, line by line
Substance | target | test | system | setting | how to read | quantity | value
PhoQ, residues 284 288 289 292 302 303 GASLAW | PhoP, residues 12 14 15 18 19 LQHIR (Escherichia coli, UniProt P23836) | Sort-seq, measured: YFP reporter | E. coli | PhoQ-PhoP variant library, with: 10 µM Mg2+ | relative to: high Mg2+ state, higher = stronger signaling | fold induction | 1.26

For quick reference, copied from above (study 2):
Change | normalised enrichment score
K6G | 0.523
L7G | -0.105
